Earlier results as cited in several papers.
Compare with care: the assays were run in different laboratories. ± gives the spread as reported.

SMILES	target or system	test	system	setting	measurement	result
CCN(CC)CCOc1ccc2c(c1)C(=O)c1cc(OCCN(CC)CC)ccc1-2	–	–	mouse liver microsomes	–	intrinsic clearance	13.5 µL/min/mg protein
C=C[C@@H]1C[C@]1(NC(=O)[C@@H]1C[C@@H]2CN1C(=O)[C@H](C(C)(C)C)NC(=O)O[C@@H]1C[C@H]1CCCCCc1nc3ccc(OC)cc3nc1O2)C(=O)NS(=O)(=O)C1CC1	human CYP3A4	inhibitor	–	with: testosterone substrate	IC50	> 100 µM
O=C(O)C(F)(F)C(F)(F)C(F)(F)C(F)(F)C(F)(F)C(F)(F)C(F)(F)F	Caco-2 cells	–	–	–	passive diffusion clearance	18.1 µL/min/mg protein
CNC(C)C1CCC(N)C(OC2C(N)CC(N)C(OC3OCC(C)(O)C(NC)C3O)C2O)O1 (centres unmarked)	Escherichia coli	–	AR0346 colistin resistant	–	MIC	> 16 µg/mL
COc1ccc2c(c1)[C@]13CCCC[C@@H]1[C@H](C2)N(C)CC3	–	–	rat	–	blood-to-plasma ratio	1.7
CCCCCOc1ccc(-c2ccc(-c3ccc(C(=O)N[C@H]4C[C@@H](O)[C@@H](O)NC(=O)[C@@H]5[C@@H](O)[C@@H](C)CN5C(=O)[C@H]([C@@H](C)O)NC(=O)[C@H]([C@H](O)[C@@H](O)c5ccc(O)cc5)NC(=O)[C@@H]5C[C@@H](O)CN5C(=O)[C@H]([C@@H](C)O)NC4=O)cc3)cc2)cc1	–	–	mild hepatic impairment patients	50 mg single dose	clearance	0.93 ± 0.22 L/h
FC(F)(F)C(F)(F)C(F)(F)C(F)(F)C(F)(F)C(F)(F)CCI	CYP2C19	inhibitor	–	Tox21 screening	IC50	inactive
O=c1[nH]c2ccccc2n1C1CCN(CCCC(c2ccc(F)cc2)c2ccc(F)cc2)CC1	–	–	human, plasma	dose not given, range of reported values	AUC	0.158 to 0.752 µM·h
O=C(NC(=O)c1c(F)cccc1F)Nc1cc(Cl)c(OC(F)(F)C(F)F)c(Cl)c1	CYP2C19	inhibitor	–	Tox21 screening	IC50	41.6 ± 33 µM
NC(=O)O[C@@H](Cn1ncnn1)c1ccccc1Cl	–	–	mouse	i.p., subcutaneous PTZ seizure test	protective index	2
O=C(O)C(F)(F)C(F)(F)C(F)(F)C(F)(F)C(F)(F)C(F)(F)C(F)(F)C(F)(F)C(F)(F)F	CYP2C19	inhibitor	–	Tox21 screening	IC50	inactive
O=C(Nc1cnccc1CO)[C@@H]1COc2ccc(Cl)cc21	main protease (Mpro)	–	–	20 µM	inhibition	46.1%
CCCCCc1cc(O)c(C/C=C(\C)CCC=C(C)C)c(O)c1	CYP2C19, human	enzyme activity, inhibitor	human liver microsomes	10 µM	inhibition	inhibited
O=C(O)C(F)(F)C(F)(F)C(F)(F)C(F)(F)C(F)(F)C(F)(F)C(F)(F)F	human serum albumin	binding	–	three low-affinity sites, combined	Kd	27.1 µM
CCCCCc1cc(O)c2c(c1)OC(C)(C)c1ccc(C)cc1-2	CYP2B6, human	enzyme activity, inhibitor	human liver microsomes	10 µM	inhibition	inhibited
O=C(O)c1cc(-c2ccc(/C=C3\SC(=S)N(Cc4ccccc4)C3=O)o2)ccc1Cl	eIF4E-eIF4G interaction	inhibitor	–	–	IC50	13.5 µM
C=C(C)[C@@H]1CCC(C)=C[C@H]1c1c(O)cc(CCCCC)cc1O	CYP2B6, human	enzyme activity, inhibitor	human liver microsomes	10 µM	inhibition	inhibited
CN(C)c1ccc(N(Cc2ccsc2)C(=O)Cn2nnc3ccccc32)cc1	main protease (Mpro)	–	–	20 µM	inhibition	84.4%
CCCCCc1cc(O)c2c(c1)OC(C)(C)[C@@H]1CCC(C)=C[C@@H]21	CYP2D6 human	–	human liver microsomes	10 µM	inhibition	inhibited
Clc1ccc(C2CC3CCC2N3)cn1 (centres unmarked)	SK-N-F1 neuroblastoma	binding, radioligand binding	–	–	Kd	1e-05 µM

Excerpt of the above:
SMILES	target or system	test	system	setting	measurement	result
O=C(O)C(F)(F)C(F)(F)C(F)(F)C(F)(F)C(F)(F)C(F)(F)C(F)(F)F	human serum albumin	binding	–	three low-affinity sites, combined	Kd	27.1 µM
CCCCCc1cc(O)c2c(c1)OC(C)(C)c1ccc(C)cc1-2	CYP2B6, human	enzyme activity, inhibitor	human liver microsomes	10 µM	inhibition	inhibited
O=C(O)c1cc(-c2ccc(/C=C3\SC(=S)N(Cc4ccccc4)C3=O)o2)ccc1Cl	eIF4E-eIF4G interaction	inhibitor	–	–	IC50	13.5 µM
